Results of several laboratories.
Numbered parts are unrelated; each lists some results of a single study.

Set 1 — technique: protein-binding microarray; molecule type: double-stranded DNA, one strand shown; sample: in vitro; tested at: 250 nM; notes: 60-bp whole probe; added: salmon DNA 0.4 mg/ml; relative to: random background probes; direction: higher = stronger binding; shared flanks, not repeated: GCCTAGCAC … GTCTTGATTCGCTTGACGCTGCTG
Target: Interferon regulatory factor 5, full length, phosphomimetic (IRF5, Homo sapiens, UniProt Q13568-2, residues 1-514, K96S/S451D/S453D/S456D/S462D)
Strand | log fluorescence [z-score]
TTAGGACTGGCCACTGGGTTAGTGCTA | -0.753
GGCGGTCTCCTTTTCCTGACGTGCTAG | -0.421
TCAGATCTCAGTCTCGATTAGTGCTAG | 0.62
GAAGGACTGCTTATCCTGACGTGCTAG | -0.18
TTAGGTTTCGGACCGGGTTAGTGCTAG | 4.45
TCAGAAATCTCTTTCCTACTGTGCTAG | 0.692
TTAGGACTGGACTATCGGCTAGTGCTA | 1.76
CTAGATATCAGTCTCGATTAGTGCTAG | 1.41

Set 2 — technique: protein binding microarray; molecule type: double-stranded DNA, one strand shown; sample: in vitro; tested at: not given; relative to: not given; direction: higher = stronger binding
Target: Histone acetyltransferase KAT6A, winged helix 2, GST fusion (KAT6A, Homo sapiens, UniProt Q92794, residues 85-181)
Notes: 8-mer, flanks averaged, mean of 2 arrays, mostly near background
Residues (chain): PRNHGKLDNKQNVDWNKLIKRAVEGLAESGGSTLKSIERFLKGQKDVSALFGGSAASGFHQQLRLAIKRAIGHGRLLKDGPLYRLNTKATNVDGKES
Strand | E-score
CACTGGCC | 0.106
AGCTGTAC | -0.0909
AAGACGTG | -0.257
CTACTAAG | -0.162
AACCTGCG | 0.0308
GGGACCCA | 0.189
AGCACGCT | -0.027
CCAAGAGA | 0.0345
ATCTAAAT | 0.11
GATGTTGA | -0.115
GTCCTAGA | -0.0547
AAGTCTTG | -0.0804
ATACAATC | -0.0179
ACAAGGAG | -0.117

Set 3 — technique: aptamer microarray, sandwich; molecule type: DNA with 2'F-ANA; sample: in vitro; tested at: 200 nM; added: Cy3 exosite-II aptamer, 400 nM; direction: higher = stronger binding; strand: GGTTGGTGTGGTTGG
Target: Prothrombin, mature alpha-thrombin (F2, Homo sapiens, UniProt P00734)
Notes: whole 15-mer aptamer, many near background
Modification | mean fluorescence intensity [a.u.]
2'F-ANA at 1 2 3 5 6 7 9 10 12 15 | 49.3
2'F-ANA at 2 3 5 10 12 13 14 15 | 140
2'F-ANA at 2 3 4 5 7 10 12 13 14 | 44.7
2'F-ANA at 1 2 5 6 8 9 10 12 14 | 50
2'F-ANA at 1 2 3 7 8 10 11 14 | 52.3
2'F-ANA at 2 3 4 5 9 10 11 14 | 53.3
2'F-ANA at 1 4 6 7 10 12 13 14 | 43.8
2'F-ANA at 2 4 5 9 12 14 15 | 49.1
2'F-ANA at 1 8 11 12 13 14 | 74.1
2'F-ANA at 1 2 3 5 6 9 12 | 126
2'F-ANA at 4 5 6 10 11 12 15 | 51.6
2'F-ANA at 1 4 6 7 8 10 12 13 15 | 55.3

Other studies, line by line
Substance | target | test | system | conditions | how to read | endpoint | value
PhoQ, residues 284 288 289 292 302 303 TTCLQL | PhoP, residues 12 14 15 18 19 HHYTI (Escherichia coli, UniProt P23836) | Sort-seq, item: YFP reporter | E. coli | PhoQ-PhoP variant library, added: 10 µM Mg2+ | relative to: high Mg2+ state, higher = stronger signaling | fold induction | 3.16

A few entries again (set 2):
Strand | E-score
GTCCTAGA | -0.0547
AAGTCTTG | -0.0804
ATACAATC | -0.0179
ACAAGGAG | -0.117
